Measured values of several laboratories.
A part holds a random share of what one study measured.

Sample 1 — method: protein binding microarray; molecule type: double-stranded DNA, one strand shown; medium: in vitro; concentration: not given; reference: not given; direction: higher = stronger binding; measurement: E-score
Target: Histone acetyltransferase KAT6A, both winged helices, GST fusion (KAT6A, Homo sapiens, UniProt Q92794, residues 1-181)
Notes: 8-mer, flanks averaged, mean of 2 arrays, mostly near background
Residues (chain): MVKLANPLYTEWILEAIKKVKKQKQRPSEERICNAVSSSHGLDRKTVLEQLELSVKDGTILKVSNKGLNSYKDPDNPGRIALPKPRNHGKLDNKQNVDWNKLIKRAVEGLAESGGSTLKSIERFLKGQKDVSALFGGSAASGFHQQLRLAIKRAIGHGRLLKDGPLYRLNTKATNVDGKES
GTTGAAGA: -0.0469
TGTTTCAA: -0.0577
CCCGCTCC: 0.237
TTAGAAAA: -0.199
GGAGACCA: -0.0657
CAATTGGA: -0.135

Sample 2 — method: protein-binding microarray; molecule type: double-stranded DNA, one strand shown; medium: in vitro; concentration: 2200 nM top; notes: 60-bp whole probe; added: salmon DNA 0.4 mg/ml; reference: random background probes; direction: higher = stronger binding; measurement: fitted relative affinity; all sequences stand within: GCCTAGCAC … GTCTTGATTCGCTTGACGCTGCTG
Target: Interferon regulatory factor 7, full length, phosphomimetic (IRF7, Homo sapiens, UniProt Q92985, residues 1-503, S471D/S472D/S475D/S476D/S477D/S483D/S484D/S487D)
Construct (chain): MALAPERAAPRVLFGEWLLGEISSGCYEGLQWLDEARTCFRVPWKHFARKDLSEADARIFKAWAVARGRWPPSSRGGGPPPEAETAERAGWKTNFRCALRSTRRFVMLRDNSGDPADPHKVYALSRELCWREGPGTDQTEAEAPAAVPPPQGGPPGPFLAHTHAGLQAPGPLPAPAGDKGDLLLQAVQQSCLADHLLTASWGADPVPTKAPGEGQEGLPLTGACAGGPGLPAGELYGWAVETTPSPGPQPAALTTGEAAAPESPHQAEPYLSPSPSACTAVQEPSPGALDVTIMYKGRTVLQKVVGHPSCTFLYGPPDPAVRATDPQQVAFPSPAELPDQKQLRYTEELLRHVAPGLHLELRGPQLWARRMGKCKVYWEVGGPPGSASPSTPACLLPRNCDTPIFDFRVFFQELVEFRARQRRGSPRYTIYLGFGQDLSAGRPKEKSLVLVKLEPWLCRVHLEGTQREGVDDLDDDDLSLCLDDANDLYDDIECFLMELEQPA
GGCGGTCTCGGTTTCGGGACGTGCTAG: 3.26 z-score
TTAGAACAGAGTTTCGATTAGTGCTAG: 2.95 z-score
TTAGATTTCAGGTTCGATTAGTGCTAG: 2.01 z-score
TTAAGTTTCGACTTTCGGTTAGTGCTA: 12.5 z-score
TTAGGTGTCCTTTTCCTTTAGTGCTAG: 1.39 z-score

Sample 3 — method: RNA Bind-n-Seq; molecule type: RNA; medium: in vitro; concentration: 365 nM; reference: no-protein control; direction: higher = stronger binding; measurement: RBNS enrichment (R)
Target: RNA binding protein fox-1 homolog 2, RRM domain, GST-SBP tag (RBFOX2, Homo sapiens, UniProt O43251-10, residues 100-194)
Notes: natural RNA segment, single round, ends assumed
Construct (chain): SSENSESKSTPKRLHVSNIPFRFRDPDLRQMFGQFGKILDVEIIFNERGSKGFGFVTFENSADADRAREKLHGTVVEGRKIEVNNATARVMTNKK
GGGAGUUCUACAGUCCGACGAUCUCUGUUUGAUACCUUGAGAGCAGAUACCUGGUCAGCGAGCUUUUAGGGGGGGGCGUUCAAAGGAAGCUGUUUAGCCUGACCGCAAGUACUGAAGUCUCUGCUUUCUGUCAUGGAAUUCUCGGGUGCCAA: 0.683
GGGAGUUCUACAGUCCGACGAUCUGAUUGAGCUUCAGGCUUUACAACGUUUAUCCCUGUAGAGAUCAUCUUUACAGUUCCUCGGGAAAAUGUGAAUGUGCUGCGUUUUGUUUUCUUUACUGUAUGAAAACAGGUGGAAUUCUCGGGUGCCAA: 0.547
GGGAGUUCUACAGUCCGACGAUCCUUGUACCCAGAGUGAUUCUACAUGGGAAAAACAAACCAGCUUUUUUCAGAGAGUGACCGAAUAGGAAGAAGGGAUUCAGAAAUAUGAUGUAGUAGAACAUGCCCUGCAGUGGAAUUCUCGGGUGCCAA: 0.354
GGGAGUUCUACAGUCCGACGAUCUUUCAAGGGUAUCUGUUCUGAUACUGAAGGGAGAGUAUGCAUCUAAAAACAGCACUGUUCCCCAAGGGGGUGUUCUGGGCUUCUCUCUCUUCUCACUUUACCUGUUUUUAUGGAAUUCUCGGGUGCCAA: 0.443
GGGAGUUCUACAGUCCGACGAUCUGAAACAUGUGCCCCUGCCAAGGCCGGAGACCCACAGCCCUGAAACGAGAAGUGCCCUUAAGGAUCACCCCAGCCCCCACAGCCCUGGAAUAAAUUUCGCAAUUAGUUUCUGGAAUUCUCGGGUGCCAA: 0.362

Further values, each from its own experiment
PhoQ, residues 284 288 289 292 302 303 SNGLAW  fold induction (PhoP, residues 12 14 15 18 19 IQSYL (Escherichia coli, UniProt P23836); Sort-seq, measured: YFP reporter; E. coli; PhoQ-PhoP variant library, added: 10 µM Mg2+; reference: high Mg2+ state, higher = stronger signaling): 9.97
